Measured values collected from several papers.
Compare with care: the assays were run in different laboratories. Numbers after ± are the reported error.
MDM2 L33E L33E; with p53: E3 ubiquitin-protein ligase Mdm2, L33E; with p53 (MDM2, Homo sapiens, UniProt Q00987, L33E)
MDM2: E3 ubiquitin-protein ligase Mdm2 (MDM2, Homo sapiens, UniProt Q00987)
MDM2 N-terminal domain 17-125: E3 ubiquitin-protein ligase Mdm2, N-terminal domain 17-125 (MDM2, Homo sapiens, UniProt Q00987)
MDM2 residues 25-109: E3 ubiquitin-protein ligase Mdm2, residues 25-109 (MDM2, Homo sapiens, UniProt Q00987)

| Structure (SMILES) | target | test | test system | setting | measurement | value |
| --- | --- | --- | --- | --- | --- | --- |
| CC(C)Oc1cc(NC(=O)[C@H](Cc2ccccc2)NC(=O)c2ccc(N)c(OCc3ccccc3)c2)ccc1C(=O)NCC(=O)O | MDM2 L33E L33E; with p53 | fluorescence anisotropy competition |  | pH 7.5 | IC50 | 11900 ± 600 nM |
| CC(=O)N[C@@H](CCCCN)C(=O)N[C@@H](CCCCN)C(=O)NCCCCCC(=O)N[C@H](C(=O)N[C@@H](CO)C(=O)N[C@@H](Cc1ccccc1)C(=O)N[C@]1(C)CCCCCCCCCCC[C@@](C)(C(=O)N[C@@H](CCC(=O)O)C(=O)N[C@@H](CC(N)=O)C(=O)N[C@@H](Cc2ccccc2)C(N)=O)NC(=O)[C@H](CC(C)C)NC(=O)[C@H](CC(C)C)NC(=O)[C@H](C)NC(=O)[C@H](Cc2c[nH]c3ccccc23)NC(=O)[C@H](Cc2ccc(O)cc2)NC(=O)[C@H](CCC(=O)O)NC1=O)[C@@H](C)O | MDM2 | cell-free assay, FP |  | pH 7.4 | Kd | 216 nM |
| CC(=O)N(Cc1ccccc1)[C@@H](C)C(=O)N(C)[C@@H](C)C(=O)N(Cc1c[nH]c2cc(Cl)ccc12)[C@@H](C)C(=O)N(C)[C@@H](C)C(=O)N(CCC(C)(C)C)[C@@H](C)C(=O)N1CCNCC1 | MDM2 N-terminal domain 17-125 | binding, SPR steady-state affinity | PBS with Tween | 10 °C, immobilised peptoid | Kd | 9.6 nM |
| CC(=O)N(Cc1ccccc1)[C@@H](C)C(=O)N(C)[C@@H](C)C(=O)N(Cc1c[nH]c2cc(Cl)ccc12)[C@@H](C)C(=O)N(C)[C@@H](C)C(=O)N(CCC(C)(C)C)[C@@H](C)C(N)=O | MDM2 | ligand displacement, FP |  |  | Ki | 340 nM |
| CC(C)C[C@H](NC(=O)[C@@H]1CSSC[C@@H]2NC(=O)[C@H](CC(N)=O)NC(=O)[C@@H](N)CSSC[C@H](NC(=O)[C@H](CC(C)C)NC(=O)[C@H](Cc3ccccc3)NC(=O)[C@H]([C@@H](C)O)NC(=O)[C@H](CCC(=O)O)NC(=O)[C@@H]3CCCN3C(=O)[C@H](C)NC(=O)[C@H](CCCCN)NC2=O)C(=O)N[C@@H](Cc2ccc(O)cc2)C(=O)N[C@@H](Cc2c[nH]c3ccccc23)C(=O)N[C@@H](CCCNC(=N)N)C(=O)N1)C(=O)N[C@@H](CCC(N)=O)C(N)=O | MDM2 residues 25-109 | SPR competition |  | added: immobilised p53 peptide | Kd | 35.2 ± 3.7 nM |
| CC(C)C[C@H](NC(=O)[C@H](CO)NC(=O)[C@H](Cc1c[nH]c2ccccc12)N1CCN[C@@H](Cc2ccccc2)C1=O)C(=O)O | E3 ubiquitin-protein ligase Mdm2, N-terminal domain (MDM2, Homo sapiens, UniProt Q00987) | binding, competitive fluorescence polarization |  | added: fluorescein-p53 peptide probe | Kd | > 400000 nM |
| CSCC[C@@H]1NC(=O)[C@H](C)NC(=O)[C@H](CC(C)C)NC(=O)[C@@H]2CSSC[C@@H](C(=O)O)NC(=O)[C@H](CCCCN)NC(=O)[C@@H]3CSSC[C@H](NC(=O)[C@H](CC(=O)O)NC(=O)[C@H](Cc4ccccc4)NC(=O)[C@H](CO)NC(=O)[C@H](Cc4ccc(O)cc4)NC(=O)[C@@H](N)CSSC[C@H](NC(=O)[C@H](CCCCN)NC(=O)CNC(=O)[C@H](CCCNC(=N)N)NC(=O)[C@H](CCCNC(=N)N)NC(=O)[C@H](Cc4ccccc4)NC(=O)CNC1=O)C(=O)N[C@@H](CCCNC(=N)N)C(=O)N[C@@H](CCCNC(=N)N)C(=O)N[C@@H](CCCNC(=N)N)C(=O)N[C@@H](CCCCN)C(=O)N3)C(=O)N[C@@H](CC(C)C)C(=O)N[C@@H](Cc1c[nH]c3ccccc13)C(=O)N[C@@H](CCCCN)C(=O)N2 | MDM2 residues 25-109 | binding, surface plasmon resonance |  | pH 7.4, 25 °C | Kd | 493 nM |
| CC(=O)N(Cc1ccccc1)[C@@H](C)C(=O)N(C)CC(=O)N(Cc1c[nH]c2cc(Cl)ccc12)[C@@H](C)C(=O)N(C)CC(=O)N(CCC(C)(C)C)[C@@H](C)C(=O)N1CCNCC1 | MDM2 N-terminal domain 17-125 | binding, SPR steady-state affinity | PBS with Tween | 10 °C, immobilised peptoid | Kd | 1400 nM |
| CCOC(=O)[C@@H]1Cc2c(cc([N+](=O)[O-])cc2[N+](=O)[O-])[C@H](O)[C@]12C(=O)Nc1ccc(Cl)cc12 (single isomer, unassigned) | MDM2 |  |  |  | IC50 | 130 ± 40 nM |
| Cc1cccc(-n2c(-c3ccccc3O)nc3ccccc3c2=O)c1 | E3 ubiquitin-protein ligase Mdm2, with p53 (MDM2, Homo sapiens, UniProt Q00987) | inhibitor |  |  | IC50 | 420 ± 36 nM |
| CC(=O)N(CC(=O)N(C)[C@@H](C)C(=O)N(Cc1c[nH]c2cc(Cl)ccc12)[C@@H](C)C(=O)N(C)[C@@H](C)C(=O)N(CCC(C)(C)C)[C@@H](C)C(=O)N1CCNCC1)Cc1ccccc1 | MDM2 N-terminal domain 17-125 | binding, SPR kinetic fit | PBS with Tween | 10 °C, immobilised peptoid | Kd | 418 nM |
| CC(C)Oc1cc(NC(=O)[C@H](Cc2c[nH]c3ccccc23)NC(=O)c2ccc(N)c(OCc3ccccc3)c2)ccc1C(=O)NCC(=O)O | MDM2 L33E L33E; with p53 | fluorescence anisotropy competition |  | pH 7.5 | IC50 | 11500 ± 300 nM |

Repeated from above:
| Structure (SMILES) | target | test | test system | setting | measurement | value |
| --- | --- | --- | --- | --- | --- | --- |
| CC(=O)N(CC(=O)N(C)[C@@H](C)C(=O)N(Cc1c[nH]c2cc(Cl)ccc12)[C@@H](C)C(=O)N(C)[C@@H](C)C(=O)N(CCC(C)(C)C)[C@@H](C)C(=O)N1CCNCC1)Cc1ccccc1 | MDM2 N-terminal domain 17-125 | binding, SPR kinetic fit | PBS with Tween | 10 °C, immobilised peptoid | Kd | 418 nM |
